# Experimental data collected from several papers.
# Every numbered part comes from another study and shows a few of its results, in no order.
# Sequence of UniProt Q9BYP7 (whole entry, looked up): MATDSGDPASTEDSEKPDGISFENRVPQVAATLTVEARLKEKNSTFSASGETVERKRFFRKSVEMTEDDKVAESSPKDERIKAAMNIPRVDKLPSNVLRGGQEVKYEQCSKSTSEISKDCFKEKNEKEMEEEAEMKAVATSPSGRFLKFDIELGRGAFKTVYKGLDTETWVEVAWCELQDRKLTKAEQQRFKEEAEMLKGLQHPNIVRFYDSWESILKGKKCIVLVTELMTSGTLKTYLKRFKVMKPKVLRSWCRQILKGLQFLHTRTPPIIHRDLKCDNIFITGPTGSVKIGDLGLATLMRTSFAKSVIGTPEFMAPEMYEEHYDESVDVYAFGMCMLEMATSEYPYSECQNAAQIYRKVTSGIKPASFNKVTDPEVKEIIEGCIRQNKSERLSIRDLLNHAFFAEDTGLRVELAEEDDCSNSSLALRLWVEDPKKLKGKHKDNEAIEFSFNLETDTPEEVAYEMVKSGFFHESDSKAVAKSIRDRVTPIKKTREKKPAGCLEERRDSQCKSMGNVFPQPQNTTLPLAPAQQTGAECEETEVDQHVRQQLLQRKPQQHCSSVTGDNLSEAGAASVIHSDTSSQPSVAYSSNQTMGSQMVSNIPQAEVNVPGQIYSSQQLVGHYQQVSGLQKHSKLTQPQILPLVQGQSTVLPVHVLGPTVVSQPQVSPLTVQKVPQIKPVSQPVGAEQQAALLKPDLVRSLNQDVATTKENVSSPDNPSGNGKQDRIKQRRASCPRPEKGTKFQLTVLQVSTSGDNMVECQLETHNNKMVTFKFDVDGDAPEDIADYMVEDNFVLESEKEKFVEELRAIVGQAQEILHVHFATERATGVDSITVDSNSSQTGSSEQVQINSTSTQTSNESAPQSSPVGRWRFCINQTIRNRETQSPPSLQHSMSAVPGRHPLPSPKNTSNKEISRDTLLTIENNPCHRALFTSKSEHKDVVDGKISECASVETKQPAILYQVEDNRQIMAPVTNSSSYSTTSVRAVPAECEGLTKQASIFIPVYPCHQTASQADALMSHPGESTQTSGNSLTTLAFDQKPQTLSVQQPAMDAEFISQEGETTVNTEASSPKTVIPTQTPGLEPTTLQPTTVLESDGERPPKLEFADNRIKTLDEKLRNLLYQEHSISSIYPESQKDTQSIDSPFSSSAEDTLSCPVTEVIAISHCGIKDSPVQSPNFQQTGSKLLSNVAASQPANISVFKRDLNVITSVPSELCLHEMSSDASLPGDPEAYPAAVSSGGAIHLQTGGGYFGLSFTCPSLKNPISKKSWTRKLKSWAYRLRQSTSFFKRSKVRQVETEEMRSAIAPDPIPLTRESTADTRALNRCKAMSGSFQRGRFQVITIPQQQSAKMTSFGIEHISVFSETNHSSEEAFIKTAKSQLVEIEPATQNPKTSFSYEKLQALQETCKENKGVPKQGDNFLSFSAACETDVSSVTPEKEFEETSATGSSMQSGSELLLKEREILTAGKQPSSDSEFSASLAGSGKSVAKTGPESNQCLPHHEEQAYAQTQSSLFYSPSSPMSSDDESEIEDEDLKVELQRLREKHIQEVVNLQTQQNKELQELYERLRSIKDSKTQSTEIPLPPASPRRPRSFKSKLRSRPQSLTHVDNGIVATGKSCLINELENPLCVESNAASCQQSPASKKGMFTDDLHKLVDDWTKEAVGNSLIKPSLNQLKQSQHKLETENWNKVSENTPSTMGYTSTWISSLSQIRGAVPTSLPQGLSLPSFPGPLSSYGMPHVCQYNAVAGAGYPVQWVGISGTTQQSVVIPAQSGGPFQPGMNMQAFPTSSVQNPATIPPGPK
# Sequence of UniProt P30530 (whole entry, looked up): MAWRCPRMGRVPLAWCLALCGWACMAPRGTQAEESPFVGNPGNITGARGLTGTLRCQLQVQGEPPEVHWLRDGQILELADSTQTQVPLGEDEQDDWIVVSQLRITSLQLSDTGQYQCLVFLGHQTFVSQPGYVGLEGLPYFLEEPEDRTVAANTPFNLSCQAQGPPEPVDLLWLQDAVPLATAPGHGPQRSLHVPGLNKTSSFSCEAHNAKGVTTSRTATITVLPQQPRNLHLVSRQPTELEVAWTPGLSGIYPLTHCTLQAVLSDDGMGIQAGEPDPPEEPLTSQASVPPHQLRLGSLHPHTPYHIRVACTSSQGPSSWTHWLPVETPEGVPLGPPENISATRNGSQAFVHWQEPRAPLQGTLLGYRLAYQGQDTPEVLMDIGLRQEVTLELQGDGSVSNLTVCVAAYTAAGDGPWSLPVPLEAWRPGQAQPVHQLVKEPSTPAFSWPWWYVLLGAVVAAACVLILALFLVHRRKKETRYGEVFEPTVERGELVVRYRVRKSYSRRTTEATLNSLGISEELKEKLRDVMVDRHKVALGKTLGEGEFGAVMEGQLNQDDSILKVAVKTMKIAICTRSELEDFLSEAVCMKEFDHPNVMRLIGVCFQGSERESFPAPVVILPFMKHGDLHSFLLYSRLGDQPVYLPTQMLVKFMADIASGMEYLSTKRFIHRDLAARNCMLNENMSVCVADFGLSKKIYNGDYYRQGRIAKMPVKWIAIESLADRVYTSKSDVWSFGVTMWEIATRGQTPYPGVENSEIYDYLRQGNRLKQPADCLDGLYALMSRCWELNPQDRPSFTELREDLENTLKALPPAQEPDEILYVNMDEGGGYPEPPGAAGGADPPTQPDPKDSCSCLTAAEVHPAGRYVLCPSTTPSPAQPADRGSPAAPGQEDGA
# Sequence of UniProt Q9UEE5 (whole entry, looked up): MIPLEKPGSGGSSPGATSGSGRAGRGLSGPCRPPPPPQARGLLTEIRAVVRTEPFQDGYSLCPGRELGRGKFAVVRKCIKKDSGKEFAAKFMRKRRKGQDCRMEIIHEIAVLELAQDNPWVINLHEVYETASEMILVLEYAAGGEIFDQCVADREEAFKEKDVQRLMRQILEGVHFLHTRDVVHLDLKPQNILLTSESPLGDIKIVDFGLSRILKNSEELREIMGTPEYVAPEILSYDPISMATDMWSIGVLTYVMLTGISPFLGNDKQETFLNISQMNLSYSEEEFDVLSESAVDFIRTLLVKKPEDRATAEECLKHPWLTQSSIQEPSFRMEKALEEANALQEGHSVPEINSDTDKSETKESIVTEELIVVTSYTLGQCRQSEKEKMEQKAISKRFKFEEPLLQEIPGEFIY
# Sequence of UniProt O75716 (whole entry, looked up): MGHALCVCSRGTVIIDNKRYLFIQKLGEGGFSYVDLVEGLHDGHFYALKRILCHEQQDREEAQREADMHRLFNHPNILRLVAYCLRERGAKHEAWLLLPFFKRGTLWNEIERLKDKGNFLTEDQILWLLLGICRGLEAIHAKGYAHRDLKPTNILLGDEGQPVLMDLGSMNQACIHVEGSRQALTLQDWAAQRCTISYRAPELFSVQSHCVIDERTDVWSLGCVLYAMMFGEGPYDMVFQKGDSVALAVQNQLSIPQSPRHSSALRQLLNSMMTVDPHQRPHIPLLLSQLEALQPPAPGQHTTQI
# Sequence of UniProt O43781 (whole entry, looked up): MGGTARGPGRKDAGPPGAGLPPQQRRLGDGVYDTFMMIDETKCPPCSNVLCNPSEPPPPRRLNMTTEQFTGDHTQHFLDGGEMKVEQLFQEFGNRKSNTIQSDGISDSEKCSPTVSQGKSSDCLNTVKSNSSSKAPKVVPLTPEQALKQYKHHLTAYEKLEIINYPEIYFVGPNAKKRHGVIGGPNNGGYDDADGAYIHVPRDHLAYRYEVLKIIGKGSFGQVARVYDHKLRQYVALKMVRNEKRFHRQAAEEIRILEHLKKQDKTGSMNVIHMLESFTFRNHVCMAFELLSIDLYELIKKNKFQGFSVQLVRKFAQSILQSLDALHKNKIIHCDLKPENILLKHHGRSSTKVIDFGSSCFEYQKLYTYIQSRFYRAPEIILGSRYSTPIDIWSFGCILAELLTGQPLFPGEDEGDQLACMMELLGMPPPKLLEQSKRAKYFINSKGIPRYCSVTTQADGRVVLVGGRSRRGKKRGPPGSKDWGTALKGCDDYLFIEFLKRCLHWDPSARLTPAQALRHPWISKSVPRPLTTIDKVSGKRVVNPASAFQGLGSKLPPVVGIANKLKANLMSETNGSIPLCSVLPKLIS
# Sequence of UniProt Q96PF2 (whole entry, looked up): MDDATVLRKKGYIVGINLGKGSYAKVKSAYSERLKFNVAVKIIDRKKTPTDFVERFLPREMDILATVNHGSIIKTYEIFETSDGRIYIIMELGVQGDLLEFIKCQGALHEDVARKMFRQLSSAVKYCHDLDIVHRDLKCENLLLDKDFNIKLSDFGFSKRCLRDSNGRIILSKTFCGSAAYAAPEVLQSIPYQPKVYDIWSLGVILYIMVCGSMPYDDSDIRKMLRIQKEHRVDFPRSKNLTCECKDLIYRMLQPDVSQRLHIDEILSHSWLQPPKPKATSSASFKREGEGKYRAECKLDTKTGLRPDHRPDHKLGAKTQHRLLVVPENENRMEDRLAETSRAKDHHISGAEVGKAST
# Sequence of UniProt Q13554 (whole entry, looked up): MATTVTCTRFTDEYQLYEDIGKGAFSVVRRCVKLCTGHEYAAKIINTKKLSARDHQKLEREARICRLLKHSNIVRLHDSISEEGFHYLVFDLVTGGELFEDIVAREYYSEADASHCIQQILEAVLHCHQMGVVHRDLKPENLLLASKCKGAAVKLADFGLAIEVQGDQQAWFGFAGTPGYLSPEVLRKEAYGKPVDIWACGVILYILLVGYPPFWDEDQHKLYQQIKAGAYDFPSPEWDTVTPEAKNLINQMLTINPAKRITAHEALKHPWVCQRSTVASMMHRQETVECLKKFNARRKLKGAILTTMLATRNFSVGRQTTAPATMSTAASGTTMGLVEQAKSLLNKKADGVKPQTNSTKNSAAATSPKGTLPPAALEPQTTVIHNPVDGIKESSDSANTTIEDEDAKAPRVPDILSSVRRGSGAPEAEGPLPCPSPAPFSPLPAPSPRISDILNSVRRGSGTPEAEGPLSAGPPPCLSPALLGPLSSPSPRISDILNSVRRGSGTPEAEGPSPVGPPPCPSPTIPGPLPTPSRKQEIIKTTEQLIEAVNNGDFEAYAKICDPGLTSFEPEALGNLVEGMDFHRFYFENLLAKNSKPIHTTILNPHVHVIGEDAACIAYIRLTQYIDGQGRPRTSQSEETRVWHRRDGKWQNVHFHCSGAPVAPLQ

# Set 1
# Compound: O=C1NC(=O)c2c1c1c3ccccc3n3c1c1c2c2ccccc2n1[C@H]1CC[C@@H]3O1
# Observed: enzyme activity
# Mode: inhibitor
# Concentration: 0.5 µM
# Baseline: control
target,remaining activity [%]
"Serine/threonine-protein kinase WNK3 (WNK3, Homo sapiens, UniProt Q9BYP7)",86
"Tyrosine-protein kinase receptor UFO (AXL, Homo sapiens, UniProt P30530)",38.1
"Ephrin type-A receptor 4 (EPHA4, Homo sapiens, UniProt P54764)",91.4
"Dual specificity tyrosine-phosphorylation-regulated kinase 3 (DYRK3, Homo sapiens, UniProt O43781)",16.6
"Mitogen-activated protein kinase kinase kinase kinase 4 (MAP4K4, Homo sapiens, UniProt O95819)",0.995
"Serine/threonine-protein kinase 16 (STK16, Homo sapiens, UniProt O75716)",58.1
"Calcium/calmodulin-dependent protein kinase type II subunit beta (CAMK2B, Homo sapiens, UniProt Q13554)",9.85
"Tyrosine-protein kinase Blk (BLK, Homo sapiens, UniProt P51451)",37.7
"Ephrin type-B receptor 1 (EPHB1, Homo sapiens, UniProt P54762)",80.2
"Cyclin-dependent kinase 1, with cyclin B (CDK1, Homo sapiens, UniProt P06493)",29.9
"Serine/threonine-protein kinase 17A (STK17A, Homo sapiens, UniProt Q9UEE5)",8.65
"Testis-specific serine/threonine-protein kinase 2 (TSSK2, Homo sapiens, UniProt Q96PF2)",87.2

# Set 2
# Cell line: HEK-293T-ACE2-TMPRSS2
# Technique: cell count
# Concentration: 10 µM
Structure (SMILES),viability [%]
Cc1cc(C2CCCN2Cc2cccc(C(=O)Nc3nccs3)c2)no1 (stereo not drawn),85
O=c1c(Cl)c(Cl)cnn1Cc1ccc([N+](=O)[O-])cc1,73
O=C(CC1=CCCCC1)N1C[C@@H](CO)[C@H](c2nc(C3CC3)no2)C1,92
CC(c1cccc(-c2ncc(F)cn2)c1)N(C)C (stereo not drawn),81
CC(=O)Nc1ccc(Cl)c(C(=O)NCCN2CCCOC2=O)c1,66
O=C(NCc1ccc2c(c1)OCO2)c1nc(S(=O)(=O)Cc2ccccc2)ncc1Cl,76
CCC(CC)C(=O)N1CCN(c2nc3ccccc3nc2C(F)(F)F)CC1,84
COc1ccccc1Oc1ncccc1CNC(=O)c1cc(C)oc1C,110
CC(C)C[C@H](NC(=O)CNCc1cc(Cl)ccc1Cl)B(O)O,109
CS(=O)(=O)c1ncc(CN2CCCCC2c2nccs2)n1CCCc1ccccc1 (stereo not drawn),110
CC(C)CC(NC(=O)c1cn2ccsc2n1)c1nnc2n1CCNCC2 (stereo not drawn),67
CCCc1nc(CN(CC)C(=O)c2csnn2)no1,68
O=C1CN(c2ncnc3sc4c(c23)CCCC4)CCN1,97
Nc1nc(Nc2ccccc2)sc1C(=O)c1ccccc1Cl,84

# Set 3
# SMILES: O=C1CCC(N2Cc3c(ccc4c3OCC43CCN(Cc4ccccc4)CC3)C2=O)C(=O)N1 (stereo not drawn)
# Observed: metabolic stability
# Medium: liver microsomes
# Concentration: 1 µM
system,conditions,compound remaining [%]
rat,0 h,100
human,45 min,72
mouse,45 min,64.9
human,15 min,91.1
human,30 min,81.3
rat,45 min,78.2

# Set 4
# Target: Diamine acetyltransferase 1 (Homo sapiens, UniProt P21673)
# Mode: inhibitor
# Concentration: 10 µM
# Baseline: control
# Target sequence (P21673 1-171): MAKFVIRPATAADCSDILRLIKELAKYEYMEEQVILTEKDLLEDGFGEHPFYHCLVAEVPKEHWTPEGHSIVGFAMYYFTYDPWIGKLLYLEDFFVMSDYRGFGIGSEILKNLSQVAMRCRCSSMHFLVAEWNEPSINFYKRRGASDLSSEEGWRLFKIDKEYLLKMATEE
SMILES,remaining activity
O=c1ccc2cc3ccoc3c(O)c2o1,99.9%
COc1ccc(C=O)cc1O,110%
COc1c(O)cc2c3c1-c1ccccc1C[C@H]3N(C)CC2,85.9%
C=CCSSCC=C,92.1%
C[C@@H]1O[C@@H](O[C@@H]2C=C3CC[C@@H]4[C@H](CC[C@]5(C)[C@@H](c6ccc(=O)oc6)CC[C@]45O)[C@@]3(C)CC2)[C@H](O)[C@H](O)[C@H]1O,87%
COc1cc([C@@H]2OC[C@@H]3[C@H]2CO[C@H]3c2cc(OC)c(O[C@@H]3O[C@H](CO)[C@@H](O)[C@H](O)[C@H]3O)c(OC)c2)cc(OC)c1O[C@@H]1O[C@H](CO)[C@@H](O)[C@H](O)[C@H]1O,119%
CCNCC,97.7%

# For quick reference, copied from above (set 1):
target,remaining activity [%]
"Testis-specific serine/threonine-protein kinase 2 (TSSK2, Homo sapiens, UniProt Q96PF2)",87.2
"Calcium/calmodulin-dependent protein kinase type II subunit beta (CAMK2B, Homo sapiens, UniProt Q13554)",9.85
"Cyclin-dependent kinase 1, with cyclin B (CDK1, Homo sapiens, UniProt P06493)",29.9
